Measured values gathered from unrelated publications.
Every numbered part comes from another study and shows a few of its results, in no order. Changes are numbered by the printed parent chain.

Block 1 — method: DHFR PCA, deep sequencing; sample: yeast; added: (+)-ABA 0 µM; reference: wild-type fitted maximum; direction: higher = stronger binding
Target: ABI1, truncated, D143A, DHFR fusion (Arabidopsis thaliana)
Notes: methotrexate growth selection, single substitutions
Parent: PYL1, truncated, DHFR fusion (Arabidopsis thaliana); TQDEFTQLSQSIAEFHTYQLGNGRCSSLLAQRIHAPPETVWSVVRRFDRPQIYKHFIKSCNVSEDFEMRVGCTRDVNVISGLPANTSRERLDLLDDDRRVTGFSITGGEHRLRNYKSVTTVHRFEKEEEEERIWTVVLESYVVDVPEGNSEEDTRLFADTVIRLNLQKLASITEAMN; partner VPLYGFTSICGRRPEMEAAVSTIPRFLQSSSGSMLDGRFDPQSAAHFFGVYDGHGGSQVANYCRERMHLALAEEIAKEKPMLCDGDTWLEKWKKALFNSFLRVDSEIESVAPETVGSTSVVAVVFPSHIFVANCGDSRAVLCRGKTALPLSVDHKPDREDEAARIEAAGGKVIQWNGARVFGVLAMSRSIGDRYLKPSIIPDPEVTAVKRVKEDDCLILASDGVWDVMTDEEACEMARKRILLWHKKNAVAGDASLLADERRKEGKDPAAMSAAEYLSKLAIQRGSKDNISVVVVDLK
For `P36A`, “relative binding score” read 8.53%.
Under “relative binding score”, `P37E` is recorded as -3.27%.
`K54E`: “relative binding score” 1.11%.
`P37V` — result for “relative binding score”: 15.3%.
For `H110Q`, “relative binding score” read 34.8%.
For `P50H`, “relative binding score” read -0.366%.
Under “relative binding score”, `V100F` is recorded as -3.1%.
`G148E`: “relative binding score” 4.04%.
`A175P`: “relative binding score” 7.65%.
Under “relative binding score”, `G21C` is recorded as 12.2%.
Under “relative binding score”, `N165K` is recorded as 4.01%.
Under “relative binding score”, `V100T` is recorded as -4.52%.

Block 2 — method: RNA Bind-n-Seq; form: RNA; sample: in vitro; tested at: 365 nM; reference: no-protein control; direction: higher = stronger binding
Target: RNA binding protein fox-1 homolog 2, RRM domain, GST-SBP tag (RBFOX2, Homo sapiens, UniProt O43251-10, residues 100-194)
Notes: natural RNA segment, single round, ends assumed
Constant ends, left off below: GGGAGUUCUACAGUCCGACGAUC … UGGAAUUCUCGGGUGCCAA
Under “RBNS enrichment (R)”, `GAAAAAGAAAGUGCCUUAUUUUUCUUCAUGGUCAUUUAGUCAAGUGUCCUGUAAGAUCAGCUCCUCCCUCAGAAUAAAGUUACUGCAUGUUCCUCAGUCGCCCAGUAUGU` is recorded as 13.5.
`UCUAACUACUUAUAAUAGUUUAUAAGCUCCUUAUGAAGAAAACCAGCAUUCUCUAUUUCUAAAGCCCACUUAUAACCCAGCAUACAAAUAGAUCUUAACAGUUUAUUAUU` — result for “RBNS enrichment (R)”: 1.3.
`UUCAGUUAUGGUAAACUCUUAAAGUUCAGAACACUCAACAGAUUCCUUCAGUGAUAUACUUGUUCGUUCAUUUCUAAAAUGUGAAGCUUUAGGACCAAAUUGUUAGAAAG` — result for “RBNS enrichment (R)”: 0.434.
`CUAGGUGCUGCCUUUCUAAGUUCUGACGAGGAGCAGCCCUCAGUGGCUUGUGUACAGAUUGCUCUAUCCCAGAAGCAAGCCUUGGUUUGUUGAAGAGCUUUUCAUGUAUA`: “RBNS enrichment (R)” 0.369.
For `GACCUGUUGCUGCAUAGAACUCUCCCUGCCCUACCCCUUAACUCCACCUUAGUGCCAGGGCCGAGGGCUGGUCUGCAUGCUGGAAGAGGUUGAGAGUUUUGGAAUUGAUU`, “RBNS enrichment (R)” read 58.7.
`UUAAGGGAUUGGCUCGCUGAGUUCUAAGCUCUAAAUGGGUCAACUCCUUUGUUUUCCGCCUAGCGACAAGGGAUUUGCUCGCACGGCAUUGGCUCCAUCCCCUAGUCGCU` — result for “RBNS enrichment (R)”: 1.82.
For `CCUAGUUAUUAUACAUAUUAAUUUUUAAGGUAUACAUUUAAAUUACACAAUUGUUCAUUGUGGUUUGUAUCCCAGAAUGUGUUGUGUUUUUUAAAAGAUGCAUAAUAGCU`, “RBNS enrichment (R)” read 0.593.

Block 3 — method: protein-binding microarray; form: double-stranded DNA, one strand shown; sample: in vitro; tested at: 940 nM top; notes: 60-bp whole probe; added: salmon DNA 0.4 mg/ml; reference: random background probes; direction: higher = stronger binding; constant ends, left off below: GCCTAGCAC … GTCTTGATTCGCTTGACGCTGCTG
Target: Interferon regulatory factor 5, full length, phosphomimetic (IRF5, Homo sapiens, UniProt Q13568-2, residues 1-514, S451D/S453D/S456D/S462D)
`TCATGTCTCTGTCCCTGACTGTGCTAG` — result for “fitted relative affinity”: 0.764 z-score.
`TTAGTACTGGACTATCGGTTAGTGCTA`: “fitted relative affinity” -0.146 z-score.
For `TAATATATATATTGTTAGTGTGTGCTA`, “fitted relative affinity” read 0.134 z-score.
`ATAGGTATCGGTATCGGTTAGTGCTAG` — result for “fitted relative affinity”: 10.1 z-score.
Under “fitted relative affinity”, `TTAGGACTGGACTATCGATTAGTGCTA` is recorded as -0.135 z-score.
`CCCTGGCTCCCTATAAAAGGGTGCTAG`: “fitted relative affinity” -0.187 z-score.
Under “fitted relative affinity”, `TTAGGGATCGGACTGGGTTAGTGCTAG` is recorded as -0.193 z-score.
`GACGGTCTCGGTACCGGGACGTGCTAG`: “fitted relative affinity” 3.91 z-score.
`GACGATATCAGTCTCGAGCCGTGCTAG` — result for “fitted relative affinity”: 0.679 z-score.
`TTAGGCATCGGGACTGGGTTAGTGCTA`: “fitted relative affinity” -0.584 z-score.
`GACGGTATCGACTTTAGGGACGTGCTA` — result for “fitted relative affinity”: 3.81 z-score.
`GGCCTCTCTGTTTTCCTGTTGTGCTAG`: “fitted relative affinity” 1.6 z-score.
Under “fitted relative affinity”, `GACGGTCTCGGTATCGTGACGTGCTAG` is recorded as 3.88 z-score.
For `TCAACTCTAATCTCACTCACTGTGCTA`, “fitted relative affinity” read 1.21 z-score.
`TTAGGTATCGGTCGCGGTTAGTGCTAG` — result for “fitted relative affinity”: 9.13 z-score.
Under “fitted relative affinity”, `GACGGACTGGGGTTTCCGGACGTGCTA` is recorded as 0.13 z-score.

Block 4 — method: protein binding microarray; form: double-stranded DNA, one strand shown; sample: in vitro; tested at: not given; reference: not given; direction: higher = stronger binding
Target: Histone acetyltransferase KAT6A, winged helix 2, GST fusion (KAT6A, Homo sapiens, UniProt Q92794, residues 85-181)
Notes: 8-mer, flanks averaged, mean of 2 arrays, mostly near background
Target sequence (chain): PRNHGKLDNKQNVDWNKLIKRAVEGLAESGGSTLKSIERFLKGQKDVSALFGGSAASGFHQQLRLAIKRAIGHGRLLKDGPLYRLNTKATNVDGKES
`AATATGAG` has an E-score of 0.0454.
For `CTGTATAA`, the E-score was -0.0681.
With `GCCTAAGA` the E-score was -0.0339.
The E-score of `ACTCGCCC` is reported as 0.0825.
The E-score of `CAAGTTTA` is reported as -0.00839.
The E-score of `GCCAAAAA` is reported as 0.194.
With `CAGGTATA` the E-score was -0.101.
`ATACCCCA` has an E-score of -0.0859.
The E-score of `AGAGTATA` is reported as -0.0849.
`AACGATCG` gave an E-score of -0.107.
For `AGATTACA`, the E-score was 0.0339.
For `GCGCTAAA`, the E-score was 0.0382.
The E-score of `CCCGTTAC` is reported as -0.0139.

For quick reference, copied from above (block 4):
With `GCCTAAGA` the E-score was -0.0339.
The E-score of `ACTCGCCC` is reported as 0.0825.
The E-score of `CAAGTTTA` is reported as -0.00839.
The E-score of `GCCAAAAA` is reported as 0.194.
